Assay results from different studies.
Lines come from different studies, so protocols differ.
Method: steady-state kinetics
B1: protein (Shewanella denitrificans, UniProt Q12KT8); chain MIHKLADVQSQNIGDNTKVWQFCVILAGAVIGRNCNICANSLIENDVVIGDNVTIKSGVQIWDGIHIQDDVFIGPNVTFTNDKQPRSKIYPDEYLKTIVKKGASIGANSTILPGILIGENAMVGAGAVITKNVPDNAIVIGNPGRITGYVEANTGVIMPSNNFELKLQMSKVKGVSLHKFHLVNDLRGNLSVGEFEKDIPFTPKRYFTVFGVPNKEVRGEHAHKECKQFLICVSGNCSVLVDDGENREEYVLDSIDKGIYLPPMTWGVQYKYSKDAVLLVFASHYYDSDDYIRDYSTFKQMRQN
B2: Mj-MAT W387F (Methanocaldococcus jannaschii, UniProt Q58605); chain MRNIIVKKLDVEPIEERPTEIVERKGLGHPDSICDGIAESVSRALCKMYMEKFGTILHHNTDQVELVGGHAYPKFGGGVMVSPIYILLSGRATMEILDKEKNEVIKLPVGTTAVKAAKEYLKKVLRNVDVDKDVIIDCRIGQGSMDLVDVFERQKNEVPLANDTSFGVGYAPLSTTERLVLETERFLNSDELKNEIPAVGEDIKVMGLREGKKITLTIAMAVVDRYVKNIEEYKEVIEKVRKKVEDLAKKIADGYEVEIHINTADDYERESVYLTVTGTSAEMGDDGSVGRGNRVNGLITPFRPMSMEAASGKNPVNHVGKIYNILANLIANDIAKLEGVKECYVRILSQIGKPINEPKALDIEIITEDSYDIKDIEPKAKEIANKFLDNIMEVQKMIVEGKVTTF
B3: MCAT R178A (Homo sapiens, UniProt Q8IVS2); chain GQGSQVVGMGRGLLNYPRVRELYAAARRVLGYDLLELSLHGPQETLDRTVHCQPAIFVASLAAVEKLHHLQPSVIENCVAAAGFSVGEFAALVFAGAMEFAEGLYAVKIAAEAMQEASEAVPSGMLSVLGQPQSKFNFACLEAREHCKSLGIENPVCEVSNYLFPDCRVISGHQEALRFLQKNSSKFHFRRTRMLPVSGAFHTRLMEPAVEPLTQALKAVDIKKPLVSVYSNVHAHRYRHPGHIHKLLAQQLVSPVKWEQTMHAIYERKKGRGFPQTFEVGPGRQLGAILKSCNMQAWKSYSAVDVL
B4: ldh (Lactococcus cremoris, UniProt A2RKA4); chain MADKQRKKVILVGDGAVGSSYAFALVNQGIAQELGIVDLFKEKTQGDAEDLSHALAFTSPKKIYSADYSDASDADLVVLTSGAPQKPGETRLDLVEKNLRITKDVVTKIVASGFKGIFLVAANPVDILTYATWKFSGFPKNRVVGSGTSLDTARFRQALAEKVDVDARSIHAYIMGEHGDSEFAVWSHANVAGVKLEQWFQENDYLNEAEIVELFESVRDAAYSIIAKKGATFYGVAVALARITKAILDDEHAVLPVSVFQDGQYGVSDCYLGQPAVVGAEGVVNPIHIPLNDAEMQKMEASGAQLKAIIDEAFAKEEFASAVKN
B5: Tat (Mus musculus, UniProt Q8QZR1); chain WNVRPSDMSNKTFNPIRAIVDNMKVKPNPNKTVISLSIGDPTVFGNLPTDPEVTQAMKDALDSGKYNGYAPSIGYLSSREEVASYYHCPEAPLEAKDVILTSGCSQAIELCLAVLANPGQNILIPRPGFSLYRTLAESMGIEVKLYNLLPEKSWEIDLKQLESLIDEKTACLVVNNPSNPCGSVFSKRHLQKILAVAERQCVPILADEIYGDMVFSDCKYEPMATLSTNVPILSCGGLAKRWLVPGWRLGWILIHDRRDIFGNEIRDGLVKLSQRILGPCTIVQGALKSILQRTPQEFYQDTLSFLKSNADLCYGALSAIPGLQPVRPSGAMYLMVGIEMEHFPEFENDVEFTERLIAEQSVHCLPATCFEYPNFFRVVITVPEVMMLEACSRIQEFCEQHY
B6: trypsin (Saccharopolyspora erythraea, UniProt Q54137); chain IVGGEDANVQDHPFTVALVTPDGQQFCGGTLAAPNKVVTAAHCTVGSQPADINVVSGRTVMSSNEGTVSKVTNVWVHPEYQDAAKGFDVSVLTLEAPVKEAPIELAKADDAGYAPDTAATILGWGNTSEGGQQADHLQKATVPVNSDDTCKQAYGEYTPDAMVCAGVPEGGVDTCQGDSGGPMVVNNKLIGVTSWGEGCARPGKPGVYARVGAYYDVLMEQINAGAVSAR
B7: ERAP1 K528R (Homo sapiens, UniProt Q9NZ08); chain MVFLPLKWSLATMSFLLSSLLALLTVSTPSWCQSTEASPKRSDGTPFPWNKIRLPEYVIPVHYDLLIHANLTTLTFWGTTKVEITASQPTSTIILHSHHLQISRATLRKGAGERLSEEPLQVLEHPRQEQIALLAPEPLLVGLPYTVVIHYAGNLSETFHGFYKSTYRTKEGELRILASTQFEPTAARMAFPCFDEPAFKASFSIKIRREPRHLAISNMPLVKSVTVAEGLIEDHFDVTVKMSTYLVAFIISDFESVSKITKSGVKVSVYAVPDKINQADYALDAAVTLLEFYEDYFSIPYPLPKQDLAAIPDFQSGAMENWGLTTYRESALLFDAEKSSASSKLGITMTVAHELAHQWFGNLVTMEWWNDLWLNEGFAKFMEFVSVSVTHPELKVGDYFFGKCFDAMEVDALNSSHPVSTPVENPAQIREMFDDVSYDKGACILNMLREYLSADAFKSGIVQYLQKHSYKNTKNEDLWDSMASICPTDGVKGMDGFCSRSQHSSSSSHWHQEGVDVKTMMNTWTLQRGFPLITITVRGRNVHMKQEHYMKGSDGAPDTGYLWHVPLTFITSKSDMVHRFLLKTKTDVLILPEEVEWIKFNVGMNGYYIVHYEDDGWDSLTGLLKGTHTAVSSNDRASLINNAFQLVSIGKLSIEKALDLSLYLKHETEIMPVFQGLNELIPMYKLMEKRDMNEVETQFKAFLIRLLRDLIDKQTWTDEGSVSERMLRSQLLLLACVHNYQPCVQRAEGYFRKWKESNGNLSLPVDVTLAVFAVGAQSTEGWDFLYSKYQFSLSSTEKSQIEFALCRTQNKEKLQWLLDESFKGDKIKTQEFPQILTLIGRNPVGYPLAWQFLRKNWNKLVQKFELGSSSIAHMVMGTTNQFSTRTRLEEVKGFFSSLKENGSQLRCVQQTIETIEENIGWMDKNFDKIRVWLQSEKLEHDPEADATG
B8: enzyme G29Y (Thermobifida fusca, UniProt Q47RA9); chain MIMIMASKSSPHDLPDVSGLSIAVLGGTYDQGRGLARRFAMAGHEVILGSRSAERAQAVAAELGEGLPVRGMDNAGAAEAGDVVIVAVPWDGHRALLESLKDVLAGKIVVDCVNPLGFDKRGAYALPVEEGSAAEQAAAILPDSRVVAAFHHVSAVLLLDPEVEKVDLDVLVLGDDREATDVVRALAARIPGVRGVYGGRLRNAHQVEAFTANLISINRRYKAHAGIRITDI
B9: Nudt8 (Mus musculus, UniProt Q9CR24); chain MLPDGLSAEDEQRCRQLLARTTARLRSRPAAAAVLVPLCLVRGVPALLYTLRSSRLVGRHKGEVSFPGGKCDPDDQDVIHTALRETQEELGLEVPKEHVWGVLQPVYDREKATIVPVLANVGPLDLQSLRPNLEEVDEVFEMSLAHLLQTQNQGYTHFCQGGHFSYTLPVFLHGPHRVWGLTAVITELTLKLLAPGFYQPSLAVPELPRG
B10: protein (Irpex lacteus, UniProt A0A510I1H7); chain QSQVWGQCGGIGWTGATTCVAGSVCTKSNDYYSQCIPGAAAPSSAPPASTPVSVPPSQPSGSSGGLANIPASKLTQFSNFGTNPNNVQMFVYKPKNVAANPPLIVASHYCSGTAQAYFTGSKFAQLAETYGYVVIFPSSPHSGTCWDVSSDETLMHDGGSDSLSIANAARFAISNWGVDPNRVFAVGTSSGAMMTSVLAGAYPDIFKAGIVDSGVAFGCFAVPGQPEDSWNSQCSEGQLVLTGQQWAQKVKNAFPGFTGTYPKMQVWHGTADTTLYPQNFFEEVKQWTTIFNYPSTPLSNVTQTNLGSNYHNATFGPNFQAILATGVGHTVPLFEQQYLQFLGIA
B11: protein Y93T (Thermus thermophilus, UniProt Q5SKR5); chain MSAPKPFVIGIAGGTASGKTTLAQALARTLGERVALLPMDHYYKDLGHLPLEERLRVNYDHPDAFDLALYLEHAQALLRGLPVEMPVYDFRATTRSPRRTPVRPAPVVILEGILVLYPKELRDLMDLKVFVDADADERFIRRLKRDVLERGRSLEGVVAQYLEQVKPMHLHFVEPTKRYADVIVPRGGQNPVALEMLAAKALARLARMGAA
Chain of UniProt J9VYP5 (whole entry, looked up): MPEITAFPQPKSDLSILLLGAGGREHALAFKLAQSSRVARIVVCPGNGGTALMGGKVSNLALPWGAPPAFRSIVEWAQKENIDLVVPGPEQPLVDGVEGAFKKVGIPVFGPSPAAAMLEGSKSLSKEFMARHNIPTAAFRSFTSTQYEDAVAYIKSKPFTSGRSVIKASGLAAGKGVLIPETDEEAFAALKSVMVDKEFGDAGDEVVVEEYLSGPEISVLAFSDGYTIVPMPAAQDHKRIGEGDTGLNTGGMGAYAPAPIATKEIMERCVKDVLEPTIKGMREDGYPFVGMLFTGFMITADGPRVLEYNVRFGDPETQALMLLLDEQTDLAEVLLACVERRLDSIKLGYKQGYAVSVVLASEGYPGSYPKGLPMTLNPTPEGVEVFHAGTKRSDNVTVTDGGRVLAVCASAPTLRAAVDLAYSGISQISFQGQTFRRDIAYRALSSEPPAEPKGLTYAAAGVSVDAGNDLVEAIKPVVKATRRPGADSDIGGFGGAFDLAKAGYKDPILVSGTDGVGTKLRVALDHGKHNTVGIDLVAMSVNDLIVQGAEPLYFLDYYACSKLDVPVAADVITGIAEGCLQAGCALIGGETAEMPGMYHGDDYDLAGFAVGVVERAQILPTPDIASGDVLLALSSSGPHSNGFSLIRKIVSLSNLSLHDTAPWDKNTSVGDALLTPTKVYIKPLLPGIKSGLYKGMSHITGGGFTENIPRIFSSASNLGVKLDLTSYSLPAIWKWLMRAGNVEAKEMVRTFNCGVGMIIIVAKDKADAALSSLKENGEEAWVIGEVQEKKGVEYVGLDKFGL
Chain of UniProt P00813 (whole entry, looked up): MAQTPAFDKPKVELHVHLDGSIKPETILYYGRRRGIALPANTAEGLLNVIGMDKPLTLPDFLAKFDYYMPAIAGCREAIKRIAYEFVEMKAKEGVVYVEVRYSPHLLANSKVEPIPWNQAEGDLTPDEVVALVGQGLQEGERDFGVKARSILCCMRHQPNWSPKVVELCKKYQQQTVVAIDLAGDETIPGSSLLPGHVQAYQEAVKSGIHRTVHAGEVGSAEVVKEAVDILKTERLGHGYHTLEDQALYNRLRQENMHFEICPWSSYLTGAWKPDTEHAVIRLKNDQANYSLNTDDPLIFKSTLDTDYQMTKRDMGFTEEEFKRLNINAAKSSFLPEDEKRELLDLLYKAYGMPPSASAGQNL
Chain of UniProt Q27593 (whole entry, looked up): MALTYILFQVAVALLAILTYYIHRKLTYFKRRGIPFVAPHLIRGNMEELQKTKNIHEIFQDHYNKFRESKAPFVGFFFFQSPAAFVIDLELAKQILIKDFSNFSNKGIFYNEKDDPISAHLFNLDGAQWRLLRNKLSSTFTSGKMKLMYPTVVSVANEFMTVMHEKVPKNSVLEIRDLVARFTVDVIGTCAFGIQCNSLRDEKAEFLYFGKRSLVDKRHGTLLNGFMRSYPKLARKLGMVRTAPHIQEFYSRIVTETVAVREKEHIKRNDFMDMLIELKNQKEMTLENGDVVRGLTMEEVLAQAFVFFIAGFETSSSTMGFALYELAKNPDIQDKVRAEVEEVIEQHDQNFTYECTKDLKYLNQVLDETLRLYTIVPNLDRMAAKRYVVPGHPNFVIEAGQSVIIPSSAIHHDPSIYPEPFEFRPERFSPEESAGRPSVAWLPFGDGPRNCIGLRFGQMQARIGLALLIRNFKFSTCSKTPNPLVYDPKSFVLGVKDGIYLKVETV

enzyme (Plasmodium falciparum, UniProt Q8I302) — Km (CC1=CC(=O)c2ccccc2C1=O; pH 8, 100 °C, not purified): 239 µM
B1 (protein) — Km (Cc1cn([C@H]2C[C@H](O)[C@@H](COP(=O)(O)OP(=O)(O)O[C@H]3O[C@H](C)[C@H](O)[C@H](N)[C@H]3O)O2)c(=O)[nH]c1=O; pH 8.5, together with: acetyl-CoA 2 mM): 45 µM
B2 (Mj-MAT W387F) — Km (CSCC[C@H](N)C(=O)O; 55 °C, together with: ATP 2.5 mM, methionine 0.05-1 mM): 310 µM
B3 (MCAT R178A) — Km (CC(C)(COP(=O)(O)OP(=O)(O)OC[C@H]1O[C@@H](n2cnc3c(N)ncnc32)[C@H](O)[C@@H]1OP(=O)(O)O)[C@@H](O)C(=O)NCCC(=O)NCCSC(=O)CC(=O)O; pH 6.8, 20 °C, labelled substrate, together with: holo-ACP 20 µM): 1060 µM
ADA (Homo sapiens, UniProt P00813) — Km (Nc1ncnc2c1ncn2[C@H]1C[C@H](O)[C@@H](CO)O1; HEK293, cell homogenate; pH 5.8, 37 °C, not purified): 51.3 µM
GAR synthetase (Cryptococcus neoformans, UniProt J9VYP5) — Km (Nc1ncnc2c1ncn2[C@@H]1O[C@H](COP(=O)(O)OP(=O)(O)OP(=O)(O)O)[C@@H](O)[C@H]1O; pH 8, 37 °C, apparent): 52 µM
B4 (ldh) — Km (NC(=O)c1ccc[n+]([C@@H]2O[C@H](COP(=O)(O)OP(=O)(O)OC[C@H]3O[C@@H](n4cnc5c(N)ncnc54)[C@H](O)[C@@H]3O)[C@@H](O)[C@H]2O)c1; pH 7, 30 °C, apparent): 380 µM
B5 (Tat) — Km (N[C@@H](Cc1ccccc1)C(=O)O; pH 7, 38 °C, 100 mM phosphate, together with: 10 mM KGA; PLP): 11400 µM
B6 (trypsin) — Km (N=C(N)NCCC[C@H](NC(=O)c1ccccc1)C(=O)Nc1ccc([N+](=O)[O-])cc1; pH 8, 25 °C): 550 µM
CPR (Sorghum bicolor, UniProt C5YJG8) — Km (NC(=O)C1=CN([C@@H]2O[C@H](COP(=O)(O)OP(=O)(O)OC[C@H]3O[C@@H](n4cnc5c(N)ncnc54)[C@H](OP(=O)(O)O)[C@@H]3O)[C@@H](O)[C@H]2O)C=CC1; pH 7.4, 25 °C): 8.9 µM
B7 (ERAP1 K528R) — Km (CC(C)C[C@H](NC(=O)CNC(=O)[C@H](CCC(=O)O)NC(=O)[C@H](Cc1ccccc1)NC(=O)[C@H](CCCNC(=N)N)NC(=O)[C@H](CCCCN)NC(=O)[C@@H](N)Cc1ccc(O)cc1)C(=O)N[C@H](C(=O)N[C@@H](CCC(N)=O)C(=O)N[C@@H](CCCNC(=N)N)C(=O)O)[C@@H](C)O; 25 °C): 37 µM
alanine aminopeptidase (Neisseria meningitidis, UniProt Q9JYV4) — Km (NC(=O)Cc1cc(=O)oc2cc(NC(=O)[C@@H](N)C3Cc4ccccc4C3)ccc12; pH 7.5, 37 °C): 48.9 µM
B8 (enzyme G29Y) — Km (NC(=O)c1ccc[n+](CCO)c1; pH 8, 25 °C): 23000 µM
CYP6A8 (Drosophila melanogaster, UniProt Q27593) — Km (CCCCCCCCCC(=O)O; DLPC; pH 7.4, 37 °C, total hydroxylation, together with: P450 reductase, NADPH): 21.2 µM
B9 (Nudt8) — Km (CC(C)(COP(=O)(O)OP(=O)(O)OC[C@H]1O[C@@H](n2cnc3c(N)ncnc32)[C@H](O)[C@@H]1OP(=O)(O)O)[C@@H](O)C(=O)NCCC(=O)NCCS; pH 8.5, together with: 2 mM Mn2+): 150 µM
B10 (protein) — Km (CC(=O)Oc1ccc2c(C)cc(=O)oc2c1; pH 6, 30 °C): 400 µM
B11 (protein Y93T) — Km (Nc1ccn([C@@H]2O[C@H](CO)[C@@H](O)[C@H]2O)c(=O)n1; pH 7.2, 25 °C, KCl 100 mM, together with: ATP 100–200 µM): 587 µM

Excerpt of the above:
alanine aminopeptidase (Neisseria meningitidis, UniProt Q9JYV4) — Km (NC(=O)Cc1cc(=O)oc2cc(NC(=O)[C@@H](N)C3Cc4ccccc4C3)ccc12; pH 7.5, 37 °C): 48.9 µM
GAR synthetase (Cryptococcus neoformans, UniProt J9VYP5) — Km (Nc1ncnc2c1ncn2[C@@H]1O[C@H](COP(=O)(O)OP(=O)(O)OP(=O)(O)O)[C@@H](O)[C@H]1O; pH 8, 37 °C, apparent): 52 µM
B5 (Tat) — Km (N[C@@H](Cc1ccccc1)C(=O)O; pH 7, 38 °C, 100 mM phosphate, together with: 10 mM KGA; PLP): 11400 µM
